Results pooled from the literature.
Protocols differ between the studies behind these lines. pEC50, pIC50: −log10 of the molar value.
Cell line: RPMI-8226

| SMILES | assay | conditions | scale | endpoint | value |
| --- | --- | --- | --- | --- | --- |
| CCCC(CCC)C(=O)OCc1cn(-c2cc3ccccc3oc2=O)nn1 | NCI60 single-dose screen | 10 µM | – | growth percentage | 100% |
| CN(C)CCN1CCN(c2ccc3nc(-c4ccc5nc(-c6ccc(C(F)(F)F)cc6)[nH]c5c4)[nH]c3c2)CC1 | SRB | 10 µM, 48 h | – | growth percent | 19.1% |
| CC(C)C[C@H](NC(=O)[C@H](Cc1ccccc1)NC(=O)[C@H](CCCNC(=N)N)NC(=O)[C@H](C)N)B(O)O | cell growth or viability, ATP luminescence | – | – | pEC50 | 6.50 |
| CC(C)c1ccc(N(C)c2ccc3c(c2)OCC[C@H]3CNc2cnccc2C(=O)O)cc1 | cell growth or viability, ATP luminescence | 7 days | – | pIC50 | 7.90 |
| CNS(=O)(=O)Nc1nccc(Cc2c(C)c3ccc(Oc4ncccc4F)cc3oc2=O)c1F | cell viability | 7 days | – | pIC50 | 8.28 |
| O=C(Nc1nnc2c1c(-c1ccc(Cl)cc1)nc1sc(=Cc3ccco3)c(=O)n12)c1ccccc1 (mixture of isomers) | SRB | 10 µM, NCI60 single-dose screen | relative to: untreated | cell growth | 44.4% |
| Cc1ccc([N+](=O)[O-])cc1S(=O)(=O)N(C)/N=C/c1cnc2ccc(Br)cn12 | cytotoxicity, MTS | – | – | pIC50 | 7.11 |
| CCOc1cncc(-c2ccc(NC(=O)C3(c4ccnc(NS(=O)(=O)C5CC5)n4)CCOCC3)nc2)n1 | cell growth or viability, ATP luminescence | 72 h | – | pIC50 | 6.46 |

Excerpt of the above:
| SMILES | assay | conditions | scale | endpoint | value |
| --- | --- | --- | --- | --- | --- |
| CC(C)c1ccc(N(C)c2ccc3c(c2)OCC[C@H]3CNc2cnccc2C(=O)O)cc1 | cell growth or viability, ATP luminescence | 7 days | – | pIC50 | 7.90 |
